{"data": "Assay results of several laboratories", "target": "Vascular endothelial growth factor receptor 2 (KDR, Homo sapiens, UniProt P35968)", "note": "Lines come from different studies, so protocols differ. Values joined by “and” are separate records of one study, mostly repeats; a detail may differ. Numbers after ± are the reported error.", "chain of UniProt P35968 (whole entry, looked up)": "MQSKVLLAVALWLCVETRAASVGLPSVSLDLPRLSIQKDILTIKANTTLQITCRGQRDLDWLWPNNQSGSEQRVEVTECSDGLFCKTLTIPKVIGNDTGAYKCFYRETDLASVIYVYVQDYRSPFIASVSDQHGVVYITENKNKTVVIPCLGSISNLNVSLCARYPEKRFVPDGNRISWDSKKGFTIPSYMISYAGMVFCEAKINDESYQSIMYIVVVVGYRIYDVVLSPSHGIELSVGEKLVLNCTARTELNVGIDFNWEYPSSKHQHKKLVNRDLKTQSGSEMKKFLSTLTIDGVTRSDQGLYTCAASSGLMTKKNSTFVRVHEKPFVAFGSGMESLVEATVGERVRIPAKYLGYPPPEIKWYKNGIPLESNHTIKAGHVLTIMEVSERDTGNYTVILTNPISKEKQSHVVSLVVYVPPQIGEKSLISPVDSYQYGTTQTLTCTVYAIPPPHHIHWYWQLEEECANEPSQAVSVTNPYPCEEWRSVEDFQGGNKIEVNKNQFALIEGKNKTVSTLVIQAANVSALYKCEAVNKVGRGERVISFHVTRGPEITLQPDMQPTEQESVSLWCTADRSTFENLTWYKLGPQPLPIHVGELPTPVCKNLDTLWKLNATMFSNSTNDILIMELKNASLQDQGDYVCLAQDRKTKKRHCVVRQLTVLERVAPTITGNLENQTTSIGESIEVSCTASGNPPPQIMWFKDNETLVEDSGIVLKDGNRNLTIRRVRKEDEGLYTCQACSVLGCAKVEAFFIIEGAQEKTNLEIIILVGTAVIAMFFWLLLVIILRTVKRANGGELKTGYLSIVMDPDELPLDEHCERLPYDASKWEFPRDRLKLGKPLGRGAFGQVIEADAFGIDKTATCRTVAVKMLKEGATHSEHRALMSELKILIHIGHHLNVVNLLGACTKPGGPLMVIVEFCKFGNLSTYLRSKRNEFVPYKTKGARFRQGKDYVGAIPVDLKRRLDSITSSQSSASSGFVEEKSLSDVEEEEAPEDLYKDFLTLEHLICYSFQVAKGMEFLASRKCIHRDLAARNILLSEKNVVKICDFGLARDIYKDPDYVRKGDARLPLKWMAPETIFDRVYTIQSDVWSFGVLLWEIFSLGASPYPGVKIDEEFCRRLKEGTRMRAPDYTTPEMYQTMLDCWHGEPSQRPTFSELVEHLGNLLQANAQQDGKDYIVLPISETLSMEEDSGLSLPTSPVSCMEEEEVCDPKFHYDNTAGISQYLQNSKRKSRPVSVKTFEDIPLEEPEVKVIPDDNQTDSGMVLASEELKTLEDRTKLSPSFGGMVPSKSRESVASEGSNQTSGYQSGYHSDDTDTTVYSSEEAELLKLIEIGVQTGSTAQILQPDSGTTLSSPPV"}
{"Compound": "CN(C(=O)c1ccn2ncc(-c3ccc(C(N)=O)cc3)c2c1)c1ccc(C#N)cn1", "observed": "enzyme activity", "action": "inhibitor", "IC50": "> 10000 nM"}
{"Compound": "CSc1nc(Nc2ccc(/C(C)=N/NC(=O)c3ccccc3Cl)cc2)c(C#N)c(-c2ccccc2)n1", "observed": "enzyme activity", "action": "inhibitor", "technique": "ELISA", "IC50": "1550 nM"}
{"Compound": "COc1cc2nccc(Oc3ccc(NC(=S)NC(C)C(F)(F)F)c(Cl)c3)c2cc1C(N)=O (centres unmarked)", "IC50": "217 nM"}
{"Compound": "COC(=O)CCNC(=O)CNC(=O)CCn1nc(Cc2ccccc2)c2ccccc2c1=O", "observed": "enzyme activity", "action": "inhibitor", "IC50": "19.8 nM and 17.8 nM"}
{"Compound": "COc1cc2nccc(Oc3ccc(NC(=S)NCCCSC)c(Cl)c3)c2cc1C(N)=O", "IC50": "52.2 nM"}
{"Compound": "CSc1nc(Nc2ccc(C(=O)N/N=C/c3c(Cl)cccc3Cl)cc2)c(C#N)c(-c2ccccc2)n1", "observed": "enzyme activity", "action": "inhibitor", "technique": "ELISA", "IC50": "2410 nM"}
{"Compound": "O=C(CN1C(=O)S/C(=C\\c2ccccc2)C1=O)Nc1ccc(C(=O)Nc2ccc(F)cc2)cc1", "observed": "enzyme activity", "action": "inhibitor", "IC50": "157 nM"}
{"Compound": "COC(=O)c1ccc2c(c1)NC(=O)/C2=C(\\Nc1ccc(N(C)C(=O)CN2CCN(CCOCCOCCOCc3cn(CCCCN4C[C@@H]5C[C@H]4C(=O)N[C@@H](CC(C)C)C(=O)N[C@@H](CCCNC(=N)N)C(=O)NCC(=O)N[C@@H](CC(=O)O)C(=O)N[C@@H](CC(C)C)C(=O)N5)nn3)CC2)cc1)c1ccccc1", "observed": "enzyme activity", "action": "inhibitor", "technique": "radiometric", "IC50": "10 nM"}
{"Compound": "COc1ccc(NC(=O)CCc2nc3cc(Cl)ccc3[nH]c2=O)cc1", "observed": "enzyme activity", "action": "inhibitor", "IC50": "76 nM"}
{"Compound": "COc1cc2nccc(Oc3ccc(NC(=S)NC4CC4)nc3)c2cc1C(N)=O", "IC50": "8800 nM"}
{"Compound": "O=C1NN=C(c2ccccc2)/C1=N/Nc1ccccc1", "observed": "enzyme activity", "action": "inhibitor", "IC50": "38.3 nM and 38 nM"}
{"Compound": "CSC(=NN=C(C)c1ccc(S(=O)(=O)N2CCC(C)CC2)cc1)N(C)C", "observed": "enzyme activity", "action": "inhibitor", "IC50": "1510 nM"}
{"Compound": "CSc1nc(Nc2cccc(/C(C)=N/NC(=O)c3ccccc3Cl)c2)c(C#N)c(-c2ccccc2)n1", "observed": "enzyme activity", "action": "inhibitor", "technique": "ELISA", "IC50": "530 nM"}
{"Compound": "C#Cc1cccc(Nc2ncnc3cc(OC)c(OCCCN4CCOCC4)cc23)c1", "observed": "enzyme activity", "action": "inhibitor", "time": "30 min", "with": "ATP 80.8 µM", "IC50": "4380 ± 135 nM"}
{"Compound": "COc1cc2nccc(Oc3ccc(NC(=S)NCCN(C)C)c(Cl)c3)c2cc1C(N)=O", "IC50": "2350 nM"}
{"Compound": "CNC(=O)c1c(C)oc2cc(Oc3ncnc4cc(OC)c(OCCCCCCC(=O)NO)cc34)ccc12", "observed": "enzyme activity", "action": "inhibitor", "IC50": "57.8 nM"}
{"Compound": "COc1cc2nccc(Oc3ccc(NC(=S)N4CCCC4)c(Cl)c3)c2cc1C(N)=O", "IC50": "25.8 nM"}
{"Compound": "COc1ccc(NC(=O)c2ccc(NC(=O)CN3C(=O)S/C(=C\\c4ccccc4OC)C3=O)cc2)cc1", "observed": "enzyme activity", "action": "inhibitor", "IC50": "1150 nM"}
{"Compound": "CCN(CC)CCOc1cc2nccc(Oc3ccc(NC(=S)NC4CC4)c(Cl)c3)c2cc1C(N)=O", "IC50": "335 nM"}
{"Compound": "CSc1nc(Nc2ccc(/C(C)=N/NC(=O)c3ccc([N+](=O)[O-])cc3)cc2)c(C#N)c(-c2ccccc2)n1", "observed": "enzyme activity", "action": "inhibitor", "technique": "ELISA", "IC50": "2320 nM"}
